Measurements of several laboratories.
Protocols differ between the studies behind these lines. ± gives the spread as reported.
SULT2A1: Sulfotransferase 2A1 (SULT2A1, Homo sapiens, UniProt Q06520)
Chain of UniProt Q06520 (whole entry, looked up): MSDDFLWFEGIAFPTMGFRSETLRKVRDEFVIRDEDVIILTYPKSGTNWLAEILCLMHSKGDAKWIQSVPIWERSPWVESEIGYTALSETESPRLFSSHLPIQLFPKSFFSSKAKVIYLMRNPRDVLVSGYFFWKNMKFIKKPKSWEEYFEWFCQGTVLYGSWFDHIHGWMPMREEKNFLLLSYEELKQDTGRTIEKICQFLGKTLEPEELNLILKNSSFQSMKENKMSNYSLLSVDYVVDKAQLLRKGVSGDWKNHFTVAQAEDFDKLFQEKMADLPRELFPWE
ESR2: Estrogen receptor beta (ESR2, Homo sapiens, UniProt Q92731)
Chain of UniProt Q92731 (whole entry, looked up): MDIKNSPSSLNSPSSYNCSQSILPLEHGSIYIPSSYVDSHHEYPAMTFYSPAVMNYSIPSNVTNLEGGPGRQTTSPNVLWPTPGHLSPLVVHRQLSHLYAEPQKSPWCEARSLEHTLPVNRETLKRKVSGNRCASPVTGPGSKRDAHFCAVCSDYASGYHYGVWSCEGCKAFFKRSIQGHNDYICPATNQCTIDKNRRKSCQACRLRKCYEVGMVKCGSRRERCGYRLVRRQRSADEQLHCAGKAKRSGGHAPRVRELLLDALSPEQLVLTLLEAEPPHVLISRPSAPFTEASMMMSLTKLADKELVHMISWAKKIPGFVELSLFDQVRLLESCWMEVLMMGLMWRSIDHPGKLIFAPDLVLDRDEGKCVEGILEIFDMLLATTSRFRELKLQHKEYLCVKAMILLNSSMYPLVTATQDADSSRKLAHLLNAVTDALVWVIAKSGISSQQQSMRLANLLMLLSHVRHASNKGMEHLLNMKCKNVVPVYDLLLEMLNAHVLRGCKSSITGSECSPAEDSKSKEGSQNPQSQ
Acy3: N-acyl-aromatic-L-amino acid amidohydrolase (carboxylate-forming) (Acy3, Mus musculus, UniProt Q91XE4)
Chain of UniProt Q91XE4 (whole entry, looked up): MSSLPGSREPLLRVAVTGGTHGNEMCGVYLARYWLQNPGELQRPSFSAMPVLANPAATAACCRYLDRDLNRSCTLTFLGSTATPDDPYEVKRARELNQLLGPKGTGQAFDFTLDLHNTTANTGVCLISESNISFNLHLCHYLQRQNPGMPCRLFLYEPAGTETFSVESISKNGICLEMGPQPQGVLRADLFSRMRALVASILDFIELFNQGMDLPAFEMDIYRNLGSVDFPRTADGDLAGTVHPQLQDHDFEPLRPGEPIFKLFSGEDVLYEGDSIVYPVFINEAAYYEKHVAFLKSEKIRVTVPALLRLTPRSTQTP
Chain of UniProt P22309 (whole entry, looked up): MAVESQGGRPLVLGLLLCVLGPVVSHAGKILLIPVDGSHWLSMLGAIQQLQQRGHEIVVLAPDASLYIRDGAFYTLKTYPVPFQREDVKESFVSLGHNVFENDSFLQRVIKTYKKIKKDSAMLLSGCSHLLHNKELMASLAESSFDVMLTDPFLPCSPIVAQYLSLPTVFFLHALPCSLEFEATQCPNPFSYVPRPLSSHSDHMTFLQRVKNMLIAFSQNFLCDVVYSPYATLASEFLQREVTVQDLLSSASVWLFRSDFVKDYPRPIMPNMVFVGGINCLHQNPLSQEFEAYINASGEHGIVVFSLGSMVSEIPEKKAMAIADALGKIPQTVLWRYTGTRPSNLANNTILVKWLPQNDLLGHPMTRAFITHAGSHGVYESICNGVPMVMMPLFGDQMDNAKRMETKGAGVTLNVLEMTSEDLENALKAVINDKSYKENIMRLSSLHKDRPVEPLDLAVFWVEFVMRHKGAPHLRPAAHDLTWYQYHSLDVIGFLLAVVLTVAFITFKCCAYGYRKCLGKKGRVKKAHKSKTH
Chain of UniProt Q7Z5P4 (whole entry, looked up): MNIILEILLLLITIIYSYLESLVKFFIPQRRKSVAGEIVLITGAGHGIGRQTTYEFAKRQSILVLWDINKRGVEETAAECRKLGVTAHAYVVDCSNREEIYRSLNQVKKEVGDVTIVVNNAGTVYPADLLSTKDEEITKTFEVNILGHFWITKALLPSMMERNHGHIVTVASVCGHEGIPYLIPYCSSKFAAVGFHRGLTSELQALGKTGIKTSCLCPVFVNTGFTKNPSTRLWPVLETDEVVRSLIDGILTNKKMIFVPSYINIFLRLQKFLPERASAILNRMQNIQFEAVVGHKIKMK
Chain of UniProt Q8GBB2 (whole entry, looked up): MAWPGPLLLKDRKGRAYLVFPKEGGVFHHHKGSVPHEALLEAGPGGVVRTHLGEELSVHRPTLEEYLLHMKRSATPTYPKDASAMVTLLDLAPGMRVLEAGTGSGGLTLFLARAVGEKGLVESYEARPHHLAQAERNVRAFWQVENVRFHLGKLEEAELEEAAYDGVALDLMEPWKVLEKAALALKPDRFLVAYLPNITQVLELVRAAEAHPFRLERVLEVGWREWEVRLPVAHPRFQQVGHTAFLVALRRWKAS
Chain of UniProt P28335 (whole entry, looked up): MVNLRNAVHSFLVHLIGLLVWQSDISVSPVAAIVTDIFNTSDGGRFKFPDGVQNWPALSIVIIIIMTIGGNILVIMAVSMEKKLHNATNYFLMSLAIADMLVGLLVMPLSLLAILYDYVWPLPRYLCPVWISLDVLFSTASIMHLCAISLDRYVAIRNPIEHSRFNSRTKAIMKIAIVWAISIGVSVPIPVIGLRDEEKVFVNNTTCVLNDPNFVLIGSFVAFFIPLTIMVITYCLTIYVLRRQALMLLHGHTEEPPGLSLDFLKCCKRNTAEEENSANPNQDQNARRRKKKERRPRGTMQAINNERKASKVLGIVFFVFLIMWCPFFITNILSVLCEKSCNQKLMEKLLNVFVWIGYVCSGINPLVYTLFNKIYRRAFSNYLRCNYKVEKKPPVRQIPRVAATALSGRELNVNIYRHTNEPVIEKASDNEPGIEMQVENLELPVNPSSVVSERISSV
Chain of UniProt P08183 (whole entry, looked up): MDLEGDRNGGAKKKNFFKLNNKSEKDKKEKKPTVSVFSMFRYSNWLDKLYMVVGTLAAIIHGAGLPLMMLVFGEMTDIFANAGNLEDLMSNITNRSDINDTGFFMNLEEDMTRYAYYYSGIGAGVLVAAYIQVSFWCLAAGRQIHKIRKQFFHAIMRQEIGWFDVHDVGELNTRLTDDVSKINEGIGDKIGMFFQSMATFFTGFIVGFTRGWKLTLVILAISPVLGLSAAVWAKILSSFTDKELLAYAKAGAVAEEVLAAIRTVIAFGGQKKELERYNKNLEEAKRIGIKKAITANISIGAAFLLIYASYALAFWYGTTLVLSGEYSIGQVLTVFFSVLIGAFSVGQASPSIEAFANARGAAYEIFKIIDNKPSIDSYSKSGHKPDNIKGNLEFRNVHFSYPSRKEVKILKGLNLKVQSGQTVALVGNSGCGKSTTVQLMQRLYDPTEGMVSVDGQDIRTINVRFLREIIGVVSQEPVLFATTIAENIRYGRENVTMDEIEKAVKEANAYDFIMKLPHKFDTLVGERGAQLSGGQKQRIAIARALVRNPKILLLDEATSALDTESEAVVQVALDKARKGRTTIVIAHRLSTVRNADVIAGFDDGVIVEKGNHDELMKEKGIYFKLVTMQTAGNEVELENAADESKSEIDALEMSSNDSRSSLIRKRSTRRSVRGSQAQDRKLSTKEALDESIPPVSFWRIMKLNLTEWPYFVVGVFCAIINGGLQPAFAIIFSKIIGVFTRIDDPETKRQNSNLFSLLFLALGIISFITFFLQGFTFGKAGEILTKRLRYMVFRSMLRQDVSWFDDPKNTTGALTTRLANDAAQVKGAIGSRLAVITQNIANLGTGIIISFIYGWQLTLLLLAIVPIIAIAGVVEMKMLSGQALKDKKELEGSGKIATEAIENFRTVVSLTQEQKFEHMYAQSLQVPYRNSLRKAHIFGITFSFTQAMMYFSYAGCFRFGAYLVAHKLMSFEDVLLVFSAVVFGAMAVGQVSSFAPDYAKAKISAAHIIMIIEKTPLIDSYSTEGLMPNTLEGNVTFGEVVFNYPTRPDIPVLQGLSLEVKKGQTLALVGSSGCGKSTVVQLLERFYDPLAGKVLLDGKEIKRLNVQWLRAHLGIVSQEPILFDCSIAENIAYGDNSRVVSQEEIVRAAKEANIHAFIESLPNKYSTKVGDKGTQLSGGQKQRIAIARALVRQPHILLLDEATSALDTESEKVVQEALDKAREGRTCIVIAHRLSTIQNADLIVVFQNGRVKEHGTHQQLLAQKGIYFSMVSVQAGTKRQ
Chain of UniProt P51575 (whole entry, unmodified, looked up): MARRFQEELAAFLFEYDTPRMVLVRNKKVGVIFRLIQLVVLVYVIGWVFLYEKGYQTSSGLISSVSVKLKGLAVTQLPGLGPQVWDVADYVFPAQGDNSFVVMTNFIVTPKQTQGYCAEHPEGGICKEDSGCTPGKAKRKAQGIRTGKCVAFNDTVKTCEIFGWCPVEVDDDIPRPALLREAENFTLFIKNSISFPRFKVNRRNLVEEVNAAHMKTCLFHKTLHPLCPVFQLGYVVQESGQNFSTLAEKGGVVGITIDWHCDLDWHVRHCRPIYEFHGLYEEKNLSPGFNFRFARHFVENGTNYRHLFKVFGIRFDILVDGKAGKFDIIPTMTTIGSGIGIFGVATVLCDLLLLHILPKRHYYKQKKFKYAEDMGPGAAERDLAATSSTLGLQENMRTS
Chain of UniProt P28223 (whole entry, looked up): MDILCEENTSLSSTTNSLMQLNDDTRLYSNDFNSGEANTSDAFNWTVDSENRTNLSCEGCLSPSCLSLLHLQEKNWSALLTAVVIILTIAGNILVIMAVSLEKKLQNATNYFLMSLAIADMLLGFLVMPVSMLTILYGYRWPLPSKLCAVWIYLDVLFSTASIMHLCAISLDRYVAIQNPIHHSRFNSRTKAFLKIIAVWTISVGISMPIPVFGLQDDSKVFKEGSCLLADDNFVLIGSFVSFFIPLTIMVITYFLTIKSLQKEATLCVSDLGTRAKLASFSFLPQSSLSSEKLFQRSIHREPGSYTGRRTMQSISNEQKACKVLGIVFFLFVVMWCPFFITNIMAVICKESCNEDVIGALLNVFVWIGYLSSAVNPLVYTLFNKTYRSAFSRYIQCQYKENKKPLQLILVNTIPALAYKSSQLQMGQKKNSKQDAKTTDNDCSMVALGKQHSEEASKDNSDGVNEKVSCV

| Structure (SMILES) | target or system | test | system | setting | scale | endpoint | result |
| --- | --- | --- | --- | --- | --- | --- | --- |
| CNC(=O)[C@@]12C[C@@H]1[C@@H](n1cnc3c(NC)nc(C#C[c-]4cccc4)nc31)[C@H](O)[C@@H]2O.[Fe+2].c1cc[cH-]c1 | HTR2A (Homo sapiens, UniProt P28223) | radioligand binding (PDSP) |  |  |  | Ki | 0.42 µM |
| COc1ccc(-n2nc(C)c3conc3c2=O)cc1 | NMDA receptor | binding, radioligand displacement |  | together with: [3H]MK-801 |  | Ki | > 10 µM |
| Oc1c(Cl)cc(-c2ccccc2)c(F)c1Cl | SULT2A1 | substrate |  | pH 7.0, 37 °C, together with: PAPS 200 µM |  | Ki | 259 ± 43.4 µM |
| O=C(O)[C@H]1O[C@@H](Oc2cc3oc(-c4ccccc4)cc(=O)c3c(O)c2O)[C@H](O)[C@@H](O)[C@@H]1O | ESR2 | array formation, agonist | GFP-ERβ PRL-HeLa | 1 h |  | EC50 | 1.35 µM |
| COc1cc(N2CCC(N3CCN(C)CC3)CC2)ccc1Nc1ncc(Cl)c(Nc2ccccc2P(C)(C)=O)n1 | ABCB1 (Homo sapiens, UniProt P08183) | inhibitor |  |  |  | Ki | 1.65 µM |
| COc1c(-c2ccccc2)oc2cc(O)cc(O)c2c1=O | ESR2 | array formation, agonist | GFP-ERβ PRL-HeLa | 1 h |  | EC50 | 1.37 µM |
| Cn1cc2c(C(=O)O)ccc(NS(=O)(=O)c3ccc(OCC4CCC4)c(Cl)c3)c2n1 | 17-beta-hydroxysteroid dehydrogenase 13 (Homo sapiens, UniProt Q7Z5P4) |  |  |  |  | Ki | 0.069 µM |
| Nc1ncnc2c1ncn2[C@@H]1O[C@H](C[C@@H](N)CC[C@H](N)C(=O)O)[C@@H](O)[C@H]1O | tRNA (adenine(58)-N(1))-methyltransferase TrmI (trmI, Thermus thermophilus, UniProt Q8GBB2) | enzyme activity, inhibitor |  |  |  | Ki | < 2 µM |
| O=C(c1cc(Cc2n[nH]c(=O)c3ccccc23)ccc1F)N1CCN(C(=O)C2CC2)CC1 | UGT1A1 (Homo sapiens, UniProt P22309) | enzyme activity, inhibitor |  |  |  | Ki | 48.4 µM |
| Cc1nn(-c2cc(Cl)cc(Cl)c2)c(=O)c2nocc12 | NMDA receptor | binding, radioligand displacement |  | together with: [3H]MK-801 |  | Ki | > 10 µM |
| Cc1nc2sccn2c(=O)c1CCN1CCC(=C(c2ccc(F)cc2)c2ccc(F)cc2)CC1 | HTR2C (Homo sapiens, UniProt P28335) |  |  |  |  | Ki | 0.0048 µM |
| CC(=O)N[C@@H](CS)C(=O)O | Acy3 |  |  |  |  | Ki | 3000 µM |
| Cc1nn(-c2ccc([N+](=O)[O-])cc2)c(=O)c2nocc12 | NMDA receptor | binding, radioligand displacement |  | together with: [3H]MK-801 |  | Ki | > 10 µM |
| Nc1c2c(nc3ccccc13)CCCC2 | Acy3 |  |  |  |  | Ki | > 10000 µM |
| Oc1c(Cl)cc(-c2ccc(F)cc2)cc1Cl | SULT2A1 | substrate |  | pH 7.0, 37 °C, together with: PAPS 200 µM |  | Ki | 323 ± 232 µM |
| O=C(Nc1nc2cccc(-c3ccc(CN4CCS(=O)(=O)CC4)cc3)n2n1)C1CC1 |  | refers to: non-infective cystitis | rheumatoid arthritis patients | oral, 75 mg once daily, 4 weeks, any relatedness |  | treatment-emergent adverse events | 0% |
| Nc1ncnc2c1ncn2[C@@H]1O[C@H](COP(=O)(O)CP(=O)(O)OP(=O)(O)O)[C@@H](O)[C@H]1O | P2X purinoceptor 1 (P2RX1, Homo sapiens, UniProt P51575, E122A) | calcium influx |  | 31.6 nM | relative to: ionomycin response | calcium influx | 0.475% |
| Cc1ccc([C@H]2C[C@@H]2COc2cc(NCc3nnc(C)s3)nc(C)n2)nc1 | GMP-stimulated 3',5'-cyclic nucleotide phosphodiesterase, PDE2A3 isoform (Macaca mulatta, UniProt B3VTJ2) | enzyme activity, inhibitor |  |  |  | Ki | 29.4 µM |
| Cc1nn(-c2ccc(F)cc2F)c(=O)c2nocc12 | NMDA receptor | binding, radioligand displacement |  | together with: [3H]MK-801 |  | Ki | > 10 µM |
| COc1ccc(N2CCN(Cc3cn4c(-c5ccc(Br)cc5)nnc4s3)CC2)cc1 | FSP1 | coenzyme Q1 reduction, competitive inhibitor |  | pH 7.2, together with: NADH varied, coenzyme Q1 |  | Ki | 0.315 ± 0.03 µM |

Some of these lines once more:
| Structure (SMILES) | target or system | test | system | setting | scale | endpoint | result |
| --- | --- | --- | --- | --- | --- | --- | --- |
| O=C(c1cc(Cc2n[nH]c(=O)c3ccccc23)ccc1F)N1CCN(C(=O)C2CC2)CC1 | UGT1A1 (Homo sapiens, UniProt P22309) | enzyme activity, inhibitor |  |  |  | Ki | 48.4 µM |
| Cn1cc2c(C(=O)O)ccc(NS(=O)(=O)c3ccc(OCC4CCC4)c(Cl)c3)c2n1 | 17-beta-hydroxysteroid dehydrogenase 13 (Homo sapiens, UniProt Q7Z5P4) |  |  |  |  | Ki | 0.069 µM |
